Experimental data of several laboratories.
“And” joins repeats or separate records; there may be more than shown. ± gives the spread as reported. In brackets after ≈: the same amount, converted by molar mass.

With `CCCCCC(=O)N[C@H]1CCOC1=O` the inhibition was 12% (ExpR2 (Pectobacterium carotovorum); cellulase activity, antagonist; Pectobacterium carotovorum, single-ExpR2 strain; 5 µM, 4 h, with: OHHL 5 µM).
For `CC[C@H](C)[C@@H]1NC(=O)[C@@H]2CCCN2C(=O)[C@H](CC(C)C)NC(=O)[C@H](CC(C)C)NC(=O)CNC(=O)[C@@H](NC(=O)[C@@H](NC(=O)[C@H](CC(=O)O)NC(=O)CNC(=O)[C@@H](NC(=O)[C@H](C)NC(=O)CNC(=O)[C@H](CCCCN)NC(=O)[C@H](CC(C)C)NC(=O)[C@H](CC(C)C)NC(=O)[C@H](CCCCN)NC(=O)CNC(=O)[C@@H](NC(=O)[C@@H](N)CC(C)C)C(C)C)C(C)C)C(C)C)CSSC[C@@H](C(=O)O)NC1=O`, “log2 fold change” read -3.11 (RNA-seq, item: Rab11fip1 mRNA; mouse traumatic brain injury, frontal cortex and hippocampus; dose not given; relative to: TBI plus compound vs TBI).
With `CC[C@H](C)[C@H](NC(=O)[C@H](C)NC(=O)[C@H](CCCCN)NC(=O)[C@H](CC(C)C)NC(=O)[C@H](C)NC(=O)[C@@H](NC(=O)[C@H](Cc1c[nH]cn1)NC(=O)[C@H](CC(C)C)NC(=O)[C@@H](NC(=O)[C@@H](NC(=O)[C@H](CCCCN)NC(=O)[C@H](C)NC(=O)[C@H](C)NC(=O)[C@H](CO)NC(=O)[C@H](CCCCN)NC(=O)[C@H](Cc1ccccc1)NC(=O)[C@@H](NC(=O)[C@H](CCCCN)NC(=O)[C@H](CC(C)C)NC(=O)[C@H](Cc1ccccc1)NC(=O)[C@H](CO)NC(=O)[C@H](CCCCN)NC(=O)[C@H](Cc1c[nH]c2ccccc12)NC(=O)[C@H](CCCCN)NC(C)=O)[C@@H](C)O)[C@@H](C)O)C(C)C)[C@@H](C)O)C(=O)N[C@@H](CO)C(=O)N[C@@H](CO)C(N)=O` the MBC range was 16 µg/mL (≈ 5.45 µM) (Klebsiella pneumoniae; ATCC 1705).
With `CN1CCN(C2(CNC3CCN(c4cccc(-c5cc6cc(F)ccc6[nH]5)c4)CC3)CCC2)CC1` the CC50 was 6.43 µM (U-251).
`CC(C)(C)NCCc1c[nH]c2cccc(O)c12.CC(C)(C)NCCc1c[nH]c2cccc(O)c12.O=C(O)/C=C/C(=O)O` gave a distance travelled of 2340 ± 359 cm (C57BL/6J mice; subcutaneous, 30 mg/kg, 30 min).
Under “persistence of STING oligomerization”, `Nc1nc2c(ncn2[C@@H]2O[C@@H]3COP(=O)(O)O[C@H]4[C@@H](O)[C@H](n5cnc6c(N)ncnc65)O[C@@H]4COP(=O)(O)O[C@@H]2[C@@H]3O)c(=O)[nH]1` is recorded as at least 30 min (STING (human); Blue-Native PAGE; HEK293T expressing STING; 100 µM).
`CCC(CC)O[C@@H]1C=C(C(=O)O)C[C@H](N)[C@H]1NC(C)=O` has a protection of 73.8 ± 0.6% (influenza A virus A/PR/8/34 (H1N1); concentration not given, pre-treatment).
The distance travelled of `O=C(O)/C=C/C(=O)O.Oc1cccc2[nH]cc(CCNCc3ccccc3)c12` is reported as 2320 ± 227 cm (C57BL/6J mice; subcutaneous, 3 mg/kg, 30 min).
With `C=CCN1CC[C@]23c4c5ccc(O)c4O[C@H]2C(=O)CC[C@@]3(O)[C@H]1C5` the % MPE was 15.3% and 0.015% and -18.3% and -21.2% and -5.32% and 6.05% (tail-flick test; male ICR-CD1 mice; subcutaneous, 5 mg/kg, 60 min).
`CC(C)NCCc1c[nH]c2cccc(O)c12.O=C(O)/C=C/C(=O)O`: “head twitch count” 14.4 ± 1.7 (C57BL/6J mice; subcutaneous, 3 mg/kg).
`COc1ccc(-n2nc(C(C)=O)s/c2=N\N=C(/C)c2ccc(NC(C)=O)cc2)cc1` gave a toxicity of 96.5% (WI-38; 0.625 µM).
For `O=c1ccn([C@@H]2O[C@](F)(CO)[C@@H](O)[C@H]2O)c(=O)[nH]1`, “normalized viral replication” read 0 (human respiratory syncytial virus; recombinant reporter virus; concentration not given, scale 0 to 100, with: adenosine 33.3 µM).
With `CCNCCc1c[nH]c2cccc(O)c12.CCNCCc1c[nH]c2cccc(O)c12.O=C(O)CCC(=O)O` the distance travelled was 1600 ± 276 cm (C57BL/6J mice; subcutaneous, 10 mg/kg, 30 min session).
The LC50 of `COc1c(CCC[P+](c2ccccc2)(c2ccccc2)c2ccccc2)cc2c(c1OC)OCO2.[I-]` is reported as over -4 log M (NCI-H522; SRB).
For `C=CCNCCc1c[nH]c2cccc(O)c12.C=CCNCCc1c[nH]c2cccc(O)c12.O=C(O)/C=C/C(=O)O`, “head twitch count” read 14.5 ± 3 (C57BL/6J mice; subcutaneous, 0.1 mg/kg).
For `CCN(CC)CCCC(C)Nc1ccnc2cc(Cl)ccc12.O=S(=O)(O)O` (stereo not drawn), the inhibition was 28.1 ± 3.6% (Dengue virus type 2; viral replication, Rluc reporter replicon; BHK-21 DENV2 replicon cells; 50 µM, 24 h).
`CS(=O)(=O)CCCn1c(Cn2c(=O)n(CC(F)(F)F)c3ccncc32)cc2cc(Cl)ccc21` — result for “LS mean viral load change”: -4.94 log10 copies/mL (respiratory syncytial virus; RT-qPCR; hospitalized infants 1-24 months, nasal swab; oral, 1-9 mg/kg daily, day 28, all doses combined; relative to: baseline).
With `CCCCCCCCCCCC[N+](C)(C)CCCCCCCCCC[N+](C)(C)CCCCCCCCCCCC.[Br-].[Br-]` the protection was 34.1 ± 10.8% (influenza A virus A/PR/8/34 (H1N1); concentration not given, co-treatment).
The AST/ALT ratio of `C[C@H]1O[C@@H](O[C@H]2CC[C@@]3(C)[C@@H](CC[C@]4(C)[C@@H]3C=C[C@]35OC[C@@]6(CCC(C)(C)C[C@H]63)[C@@H](O)C[C@]54C)[C@]2(C)CO)[C@H](O)[C@@H](O[C@@H]2O[C@H](CO)[C@@H](O)[C@H](O)[C@H]2O)[C@H]1O` is reported as 2.47 and 3.28 and 2.39 and 2.71 and 2.69 and 2.83 (mouse, ethanol-fed, hepatic SIRT1 knockdown, plasma; dose not given, high dose).
Under “HA titre reduction”, `CCCCCCCCCCCCCCCC[N+](C)(C)CCCCCCCCCC[N+](C)(C)CCCCCCCCCCCCCCCC.[Br-].[Br-]` is recorded as 1 log units (influenza A virus A/PR/8/34 (H1N1); concentration not given, pre-treatment).
`CN1CCN(S(=O)(=O)c2cc([N+](=O)[O-])ccc2N(CCOS(C)(=O)=O)CCOS(C)(=O)=O)CC1`: “EFS ratio (T/C)” 1 (NSG mice, sample CC PDX; intraperitoneal, 25 mg/kg weekly x3; relative to: treated over vehicle).
For `COc1cc(CCC[P+](c2ccccc2)(c2ccccc2)c2ccccc2)c(OC)c2c1OCO2.[I-]`, the GI50 was -5.79 log M (U-251; SRB).
`CCCCNCCc1c[nH]c2cccc(O)c12.O=C(O)/C=C/C(=O)O` — result for “head twitch count”: 8.7 ± 1.1 (C57BL/6J mice; subcutaneous, 10 mg/kg).
With `CCCCCCCCCCCCCCCC[N+](C)(C)Cc1ccc(C[N+](C)(C)CCCCCCCCCCCCCCCC)cc1.[Br-].[Br-]` the protection was 73.8 ± 1.4% (influenza A virus A/PR/8/34 (H1N1); concentration not given, pre-treatment).

Some of these lines once more:
`CS(=O)(=O)CCCn1c(Cn2c(=O)n(CC(F)(F)F)c3ccncc32)cc2cc(Cl)ccc21` — result for “LS mean viral load change”: -4.94 log10 copies/mL (respiratory syncytial virus; RT-qPCR; hospitalized infants 1-24 months, nasal swab; oral, 1-9 mg/kg daily, day 28, all doses combined; relative to: baseline).
